Measured values from different studies.
Every numbered part comes from another study and shows a few of its results, in no order. Changes are numbered by the printed parent chain.

Study 1
Target: UBE2A UBC core domain (UniProt P49459)
Chain of UniProt P49459 (whole entry, looked up): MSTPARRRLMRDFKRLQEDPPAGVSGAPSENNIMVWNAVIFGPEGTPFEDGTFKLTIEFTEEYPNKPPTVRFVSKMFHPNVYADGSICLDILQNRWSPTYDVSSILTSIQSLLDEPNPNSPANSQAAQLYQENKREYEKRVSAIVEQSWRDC
Technique: yeast two-hybrid
Matrix: yeast
Setting: mostly zero background
Baseline: not given
Direction: higher = stronger interaction
B1: RNF112 RING domain (UniProt Q9ULX5); chain QPMAPRELPTCSICLERLRDPISLDCGHDFCIRCFSTHRLPGCEPPCCPECRKICKQKRGLR
B2: NSMCE1 RING domain (UniProt Q8WV22); chain RETYPDAVKICNICHSLLIQGQSCETCGIRMHLPCVAKYFQSNAEPRCPHCNDYWPHEIPKV
B3: RNF43 RING domain (UniProt Q68DV7); chain SGSSCSSAPVCAICLEEFSEGQELRVISCLHEFHRNCVDPWLHQHRTCPLCMFNITEGDSFS
B4: RNF5 RING domain (UniProt Q99942); chain ERGGAGATFECNICLETAREAVVSVCGHLYCWPCLHQWLETRPERQECPVCKAGISREKVVP
B5: RNF14 RING domain (UniProt Q9UBS8); chain IKCFNSKLFLCSICFCEKLGSECMYFLECRHVYCKACLKDYFEIQIRDGQVQCLNCPEPKCPSVATPGQVK
B6: TRIM38 RING domain (UniProt O00635); chain STKKMMEEATCSICLSLMTNPVSINCGHSYCHLCITDFFKNPSQKQLRQETFCCPQCRAPFHMDSLRP
| Sequence | lacZ reporter activity |
| --- | --- |
| LKQVSIRENCCSLCCDEVADTQLKPCGHSDLCMDCALQLETCPLCRKEIVSRIRQI (RSPRY1 RING domain (UniProt Q96DX4)) | 0 |
| B1 (RNF112 RING domain) | 0 |
| B2 (NSMCE1 RING domain) | 0 |
| ISNDSETLEECMVCSDMKRDTLFGPCGHIATCSLCSPRVKKCLICKEQVQSRTKIE (MIB1 RING domain (UniProt Q86YT6)) | 0 |
| B3 (RNF43 RING domain) | 0 |
| KIKDLNEHIVCCLCAGYFVDATTITECLHTFCKSCIVKYLQTSKYCPMCNIKIHETQPLL (PCGF1 RING domain (UniProt Q9BSM1)) | 0 |
| B4 (RNF5 RING domain) | 0 |
| B5 (RNF14 RING domain) | 0 |
| B6 (TRIM38 RING domain) | 0 |

Study 2
Target: RING finger protein unkempt homolog, zinc fingers 1-6, GST-SBP tag (UNK, Homo sapiens, UniProt Q9C0B0, residues 30-357)
Chain of UniProt Q9C0B0 (30-357, looked up): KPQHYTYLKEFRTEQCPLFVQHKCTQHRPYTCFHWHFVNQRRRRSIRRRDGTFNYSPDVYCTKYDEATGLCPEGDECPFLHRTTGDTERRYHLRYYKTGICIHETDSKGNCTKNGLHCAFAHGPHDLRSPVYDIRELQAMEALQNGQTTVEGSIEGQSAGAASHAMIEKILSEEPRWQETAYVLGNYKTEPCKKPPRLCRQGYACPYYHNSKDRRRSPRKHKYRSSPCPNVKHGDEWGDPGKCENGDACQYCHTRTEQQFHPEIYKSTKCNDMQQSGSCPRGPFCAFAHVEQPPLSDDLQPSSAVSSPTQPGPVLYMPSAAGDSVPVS
Technique: RNA Bind-n-Seq
Molecule type: RNA
Matrix: in vitro
Tested at: not given
Setting: RNA with constant flanks, ends assumed
Baseline: input RNA pool
Direction: higher = stronger binding
All sequences stand within: GGGAGUUCUACAGUCCGACGAUC … CAACAGAGGAUUGAGCAUCA
| Oligonucleotide | bound/input enrichment [ratio] |
| --- | --- |
| ACUACCCUUUCUGGGGUCCAAGAAGAAUCUGCCCUUUGCUAUCUUCUCCAAGUUGAUGAGUUCCGAUUUUUAUUGGACUGUGGCUGGGAUGAGCACUUUUCUAUGGAUAUUAUUGAUUCC | 0.306 |
| UAGAGAACAAUGACCUCAUUUUAUUUUCUAUGUUAGUUAUUUAUUUCAAAAUUAACAUUUCCGUUGAUUUUUGUCUGAUAAGUCUAUGUUUUGCACUGCUAACUAUGAUGAGGGUUUAAA | 2.23 |
| UCAUCUUCUGUUGCUUUUAAAUUAUCUGACAAUGGAGACUCUAUUCCUUAUACCAUCAACCGGUAUUUGAGAGACUACCAAAGAGAAGGAACCCGGUUUCUUUAUGGACACUACAUCCAU | 0.249 |
| UAAAGAGCAGCUGGAUUCAUCUAAUAGUACCAUUGCCAUUUUACAAACUGAGAAAGACAAACCCGAGUUGGAAAUUACAGAUUCUAAAAAAGAACAAGAUGAUCUCUUGGUGCUCUUGGC | 0.59 |
| GACAGUGGAGAAGAGGUGGACUUGGUUAAGGAAGCGGACGUCCCCUCAGCCAUUAGUCUCCUCCGGUUUUUCCUGCAGGAGCUCCCUGAGCCCGUCAUACCUGGCAGCUUGCAUAUUCAC | 0.268 |
| CUCACGCAGCAGUUGUGGUCAAUAUUGUGGUAGUCGCUAAUUGUACUGGUUUAAGUGUGCAUCCGCCGUGUCUCCCCAGCUAGAUUGUAAGCUCCUGGAGACAGGGACCACCUCCACCAA | 0.3 |
| GCUGCCAUGGCUGCAAGGCCCCAUUCCAUUGAUGGCAGGGUAGUUGAGCCAAAACGUGCUGCCGCAAGAGAGGAGUCUGGAAAACCAGGAGCCCAUGUGACUGUGAAGAAGCUGUUUGUU | 0.11 |
| ACCGAUUUAUAUGACAUAAAACGUGCAGUUGUUCAUACCCAUCUUCUUAACCCUGAGUGGUCCGUGAAUUACUUUGGGUCCUUAUCAGUUGAAGAUUCCCUAGAAUGCCUCAGAGCCAUG | 0.195 |

Study 3
Target: CCNE1, cyclin fold, Cln2 fusion (human)
Technique: yeast growth competition, sequencing
Matrix: yeast
Setting: strong parent motif
Baseline: not given
Direction: higher = stronger binding
Starting sequence: viral docking peptide; KGVKRKLFAEDSS; partner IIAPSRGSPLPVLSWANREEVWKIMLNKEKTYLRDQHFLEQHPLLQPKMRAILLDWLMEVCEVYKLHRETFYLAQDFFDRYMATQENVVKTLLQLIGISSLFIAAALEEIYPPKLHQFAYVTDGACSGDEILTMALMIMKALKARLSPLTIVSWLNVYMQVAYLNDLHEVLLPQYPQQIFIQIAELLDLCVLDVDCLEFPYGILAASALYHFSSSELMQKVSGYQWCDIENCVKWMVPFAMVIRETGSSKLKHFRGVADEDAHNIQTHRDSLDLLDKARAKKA
| Variant | normalised enrichment score |
| --- | --- |
| F8A | 0.311 |
| A9F | 6.84 |
| D11S | 7.56 |
| L7Q | 0.122 |
| K6P | 1.64 |

Other studies, line by line
Technique: cross-linking MS
| Substance | partner | test system | conditions | endpoint | value |
| --- | --- | --- | --- | --- | --- |
| UQCC2 (Homo sapiens, UniProt Q9BRT2) | UQCC1 (Homo sapiens, UniProt Q9NVA1) | cell fractions | with: DSSO | cross-linked residues | K71 to K288 |
| HSPA4 (Homo sapiens, UniProt P34932) | ADAMTS1 (Homo sapiens, UniProt Q9UHI8) | cell fractions | with: DHSO | cross-linked residues | E308 to E585 |
| RANBP9 (Homo sapiens, UniProt Q96S59) | GID8 (Homo sapiens, UniProt Q9NWU2) | cell fractions | with: DSSO | cross-linked residues | K405 to K48 |
| DDX1 (Homo sapiens, UniProt Q92499) | RTCB (Homo sapiens, UniProt Q9Y3I0) |  | hits only | interaction screen | cross-linked |

A few entries again (study 3):
| Variant | normalised enrichment score |
| --- | --- |
| A9F | 6.84 |
| D11S | 7.56 |
